Measurements pooled from the literature.
Compare with care: the assays were run in different laboratories.

O=C1C(=C(O)NC23CC4CC(CC(C4)C2)C3)C(=O)C2(C(=O)OCc3ccccc3[N+](=O)[O-])CSC(c3ccnc(Br)c3)N12 (stereo not shown)  MIC (Streptomyces; bacterial growth, broth dilution; Mueller-Hinton broth; 24 h, 35 °C): 31.3 µg/mL
COc1ccccc1NC(=O)OC1C(C)C(OC)C=COC2(C)Oc3c(C)c(O)c4c(c3C2=O)C2=NC3(CCN(CC(C)C)CC3)NC2=C(NC(=O)C(C)=CC=CC(C)C(O)C(C)C(O)C1C)C4=O (stereo not shown)  MIC (Mycobacteroides abscessus; ATCC 19977; single-strain MIC): 140 µg/mL
CC(C)(O/N=C(\C(=O)N[C@@H]1C(=O)N(OS(=O)(=O)O)C1(C)C)c1nsc(N)n1)C(=O)O  MIC (Providencia rettgeri; agar dilution; ATCC 31052, susceptible): 0.5 µg/mL
COc1c(NC(=O)c2ccc(NC(=O)c3ccc(NC(=O)[C@H](Cc4c[nH]nn4)NC(=O)c4ccc(NC(=O)/C(C)=C/c5ccc(O)cc5)cc4)cc3)cc2)ccc(C(=O)O)c1O  MIC (Mycolicibacterium phlei; DSM 750): 4 µg/mL
O=C1C(=C(O)C=Cc2ccccc2)C(=O)C2(C(=O)OCc3ccccc3)CSC(c3ccc(Br)cn3)N12 (stereo not shown)  MIC (Streptomyces; bacterial growth, broth dilution; Mueller-Hinton broth; 24 h, 35 °C): 15.6 µg/mL
COc1c(NC(=O)c2ccc(NC(=O)c3ccc(NC(=O)[C@H](CC#N)NC(=O)c4ccc(NC(=O)/C(C)=C/c5ccc(O)cc5)cc4)cc3)c(OC)c2O)ccc(C(=O)O)c1O  MIC (Mycolicibacterium phlei; microbial growth, broth dilution; DSM750): 2 µg/mL
CC(C)OC(=O)C12CSC(c3ccccc3)N1C(=O)C(=C(O)NC1CCCCC1)C2=O (stereo not shown)  MIC (Streptomyces; bacterial growth, broth dilution; Mueller-Hinton broth; 24 h, 35 °C): 15.6 µg/mL
CC1(C)[C@H](NC(=O)/C(=N\OC2(C(=O)O)CCCCC2)c2csc(N)n2)C(=O)N1OS(=O)(=O)O  MIC (Citrobacter freundii; agar dilution; ATCC 43864, susceptible): 2 µg/mL
COc1nc(C(=O)Nc2ccc(C(=O)O)c(O)c2OC)ccc1NC(=O)c1ccc(NC(=O)[C@H](Cc2c[nH]nn2)NC(=O)c2ccc(NC(=O)/C(C)=C/c3ccc(O)cc3)cc2)cc1  MIC (Mycolicibacterium phlei; DSM 750): 1 µg/mL
C=C(NC(=O)c1csc(-c2nc3c(cc2O)-c2nc(cs2)C(=O)NC(C(C)O)C(=O)NC(=C(C)OC)c2nc(cs2)C(=O)NC2c4nc(cs4)C(=O)NC(COC(=O)c4c5c6c(cccc6n4O)COC(=O)C(OC4CC(C)(O)C(N(C)C)C(C)O4)C2OC5)c2nc-3cs2)n1)C(N)=O (stereo not shown)  MIC (Staphylococcus aureus; MRSA-11): 0.0039 µg/mL
COc1cccc(OC)c1C(=O)N[C@@H]1C(=O)N2[C@@H]1SC(C)(C)[C@@H]2C(=O)O  MIC (Gram-positive bacteria; seven strains): 16 µM
CC(=O)NC[C@H]1CN(c2ccc(N3CCN(C(=O)CN)CC3)c(F)c2)C(=O)O1  MIC (Salmonella enterica serovar Typhimurium; broth dilution; SL1344): inactive
O=C1C(=C(O)NC23CC4CC(CC(C4)C2)C3)C(=O)C2(C(=O)OC3CCCCC3)CSC(c3ccccn3)N12 (stereo not shown)  MIC (Streptomyces; bacterial growth, broth dilution; Mueller-Hinton broth; 24 h, 35 °C): 7.81 µg/mL
CC1(C)[C@H](NC(=O)/C(=N\OCc2c(Cl)cccc2Cl)c2csc(N)n2)C(=O)N1OS(=O)(=O)O  MIC (Citrobacter freundii; agar dilution; ATCC 43864, susceptible): 1 µg/mL
Cc1c(CN(C)C(=O)/C=C/c2cnc3c(c2)CC(N)C(=O)N3)oc2ccccc12 (stereo not shown)  MIC (Klebsiella pneumoniae; broth microdilution; AR-0542): 16 µg/mL
CCOc1c(NC(=O)c2ccc(NC(=O)c3ccc(NC(=O)[C@H](Cc4c[nH]nn4)NC(=O)c4ccc(NC(=O)/C(C)=C/c5ccc(O)cc5)cc4)cc3)c(OC)c2O)ccc(C(=O)O)c1O  MIC (Mycolicibacterium phlei; DSM 750): 0.5 µg/mL
CN(Cc1ccc(C2(C(F)(F)F)CCC2)cc1)Cc1cccc2ccccc12  MIC (Trichophyton mentagrophytes; microbial growth, broth dilution; ATCC18748; 72 h): 4000 µg/mL
CC1(C)[C@H](NC(=O)/C(=N\OCCN)c2csc(N)n2)C(=O)N1OS(=O)(=O)O  MIC (Providencia rettgeri; agar dilution; ATCC 31052, susceptible): ≤ 0.03 µg/mL
CN[C@H](CC(C)C)C(=O)N[C@H]1C(=O)N[C@@H](CC(N)=O)C(=O)N[C@H]2C(=O)N[C@H]3C(=O)N[C@H](C(=O)N[C@H](C(=O)O)c4cc(O)cc(O)c4-c4cc3ccc4O)[C@H](O)c3ccc(c(Cl)c3)Oc3cc2cc(c3O[C@@H]2O[C@H](CO)[C@@H](O)[C@H](O)[C@H]2O[C@H]2C[C@](C)(N)[C@H](O)[C@H](C)O2)Oc2ccc(cc2Cl)[C@H]1O  MIC (Salmonella enterica serovar Typhimurium; 14028, Mueller-Hinton broth; 18 to 20 h, 37 °C): 64 µM
C=CCOC(=O)C12CSC(c3ccccc3)N1C(=O)C(=C(O)NC13CC4CC(CC(C4)C1)C3)C2=O (stereo not shown)  MIC (Streptomyces; bacterial growth, broth dilution; Mueller-Hinton broth; 24 h, 35 °C): 15.6 µg/mL
CC1(C)C(NC(=O)C(=NOC2(C(=O)O)CCC2)c2csc(N)n2)C(=O)N1OS(=O)(=O)O (stereo not shown)  MIC (Citrobacter freundii; agar dilution; ATCC 43864, susceptible): 0.125 µg/mL
C=CCOC(=O)[C@]12CS[C@H](c3ccccc3)N1C(=O)/C(=C(\O)C1CCCCC1)C2=O  MIC (Streptomyces; bacterial growth, broth dilution; Mueller-Hinton broth; 24 h, 35 °C): 3.91 µg/mL
CCOc1c(NC(=O)c2ccc(NC(=O)c3ccc(NC(=O)[C@H](Cc4c[nH]nn4)NC(=O)c4ccc(NC(=O)/C(C)=C/c5ccc(O)cc5)cc4)cc3)c(OCC)c2O)ccc(C(=O)O)c1O  MIC (Mycolicibacterium phlei; DSM 750): 0.5 µg/mL
CC1(C)C(NC(=O)C(=NOC2(C(=O)O)CC2)c2csc(N)n2)C(=O)N1OS(=O)(=O)O (stereo not shown)  MIC (Providencia rettgeri; agar dilution; ATCC 31052, susceptible): ≤ 0.03 µg/mL
CC(C)OC(=O)C12CSC(c3ccccc3)N1C(=O)C(=C(O)NC13CC4CC(CC(C4)C1)C3)C2=O (stereo not shown)  MIC (Streptomyces; bacterial growth, broth dilution; Mueller-Hinton broth; 24 h, 35 °C): 1.95 µg/mL
CC1(C)C(NC(=O)C(=NOCC(=O)N2CC3CCCC3C2C(=O)O)c2csc(N)n2)C(=O)N1OS(=O)(=O)O (stereo not shown)  MIC (Providencia rettgeri; agar dilution; ATCC 31052, susceptible): ≤ 0.03 µg/mL
N=C(N)NCCC[C@@H]1NC(=O)[C@H](CCCNC(=N)N)NC(=O)[C@@H](C(c2ccccc2)c2ccccc2)NC(=O)[C@H](Cc2c[nH]c3ccccc23)NC(=O)[C@@H](C(c2ccccc2)c2ccccc2)NC(=O)[C@@H](CCCNC(=N)N)NC(=O)[C@@H](CCCNC(=N)N)NC1=O  MIC (Candida albicans; fungal growth): 8 µg/mL
CNC(C)C1CCC(N)C(OC2C(N)CC(N)C(OC3OCC(C)(O)C(NC)C3O)C2O)O1 (stereo not shown)  MIC (Gram-positive bacteria; seven strains): 2 µM
CC1C=CC=CC(C)C2C=CC3CC(C)(O)C(Cl)C(C)C3C2C(=O)C(Cl)(Cl)C(=O)C(C)C(=O)O1 (stereo not shown)  MIC (Staphylococcus aureus; MRSA clinical isolate; resistant: OXA,GEN): 0.2 µg/mL
COc1cc(C(=O)O)ccc1NC(=O)c1ccc(NC(=O)c2ccc(NC(=O)[C@H](Cc3c[nH]nn3)NC(=O)c3ccc(NC(=O)/C(C)=C/c4ccc(O)cc4)cc3)cc2)cc1O  MIC (Mycolicibacterium phlei; DSM 750): 2 µg/mL
O=C1/C(=C(\O)C2CCCCC2)C(=O)[C@@]2(C(=O)OCc3ccccc3)CS[C@H](c3ccc(Br)cn3)N12  MIC (Streptomyces; bacterial growth, broth dilution; Mueller-Hinton broth; 24 h, 35 °C): 15.6 µg/mL
N=C(N)NCCC[C@@H]1NC(=O)[C@@H](CCCNC(=N)N)NC(=O)[C@H](CCCNC(=N)N)NC(=O)[C@@H](C(c2ccccc2)c2ccccc2)NC(=O)[C@@H](C(c2ccccc2)c2ccccc2)NC(=O)[C@@H](C(c2ccccc2)c2ccccc2)NC(=O)[C@@H](CCCNC(=N)N)NC1=O  MIC (Candida albicans; CA3): 32 µg/mL
CC1(C)[C@H](NC(=O)/C(=N\OC2(C(=O)O)CCCC2)c2csc(N)n2)C(=O)N1OS(=O)(=O)O  MIC (Providencia rettgeri; agar dilution; ATCC 31052, susceptible): ≤ 0.03 µg/mL
C/C(=C\c1ccc(O)cc1)C(=O)Nc1ccc(C(=O)N[C@@H](Cc2c[nH]nn2)C(=O)Nc2ccc(C(=O)Nc3ccc(C(=O)Nc4ccc(C(=O)O)c(O)c4)c(O)c3)cc2)cc1  MIC (Mycolicibacterium phlei; DSM 750): 2 µg/mL
